Measured values pooled from the literature.
Each numbered part is a random draw from the data of one study; scales do not carry over between parts.

Block 1
Target: RNA binding protein fox-1 homolog 2, RRM domain, GST-SBP tag (RBFOX2, Homo sapiens, UniProt O43251-10, residues 100-194)
Technique: RNA Bind-n-Seq
Form: RNA
Medium: in vitro
Concentration: 365 nM
Notes: natural RNA segment, single round, ends assumed
Baseline: no-protein control
Reading: higher = stronger binding
Shared flanks, not repeated: GGGAGUUCUACAGUCCGACGAUC … UGGAAUUCUCGGGUGCCAA
Residues (chain): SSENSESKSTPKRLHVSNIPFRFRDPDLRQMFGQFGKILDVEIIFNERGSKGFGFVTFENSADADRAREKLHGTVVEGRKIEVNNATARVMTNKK
Oligonucleotide	RBNS enrichment (R)
GGCAAAAACACAGUUCCUUACUUUGCAUUUAGUAAAAACAAGAAAAAGUGUUAGUGAGGGUUAAGCAGGAAUACUAACUGCUCAUUUCUCAGUUCAGUGGAUAUAUGUAU	0.63
UGUAAUGGAGUGAGCGUAGCAGCUCAGCUCUUUGGAUCAGUCUUUGUGAUUUCAUAGCGAGUUUUCUGACCAGCUUUUGCGGAGAUUUUGAACAGAACUGCUAUUUCCUC	0.341
GUAGAGAUGGUUUCACCAUGCUGGCCAGGCUGGUCUUGAACUCCUGACCUCAGGUGAUCCUCCCGCCUCAGCCUUCCAAAGUGCUGGGAUUACAAGCAUGAGCCACCGCA	7.77
CAUUGAUGGCAAUUUGAAUGUGGGUAUUACUCUGUGAGCCACCCUGCUUCGCUUGUUUGUAAGGAGAAAUGCAUCUGGUUAUGUGAAUUUCCCGAGAGCAGCAGACAUGG	0.913
AUAGUAGUUUCACAUCUGUAUUAUUUCCAAGUUUAAACUGUAAGCUCCUUGAGGGCAGGGAUUAUAACUGUAACAUUUGUAUCACUGCACUCGCUUUAGUGCCUAGUACA	0.375
ACAGAUGGGCAGAGAUGGUCCCCACAGCUUCAGCCCAUCAUCAUCCCCAGAGGCCGAGCAGGGAGGGAGUGGAGCUGAGCCCCUGAAAUCCUGCACGUAGCUGAGUGAGC	2.28
ACACACACACACGGUGUUUCUAGAGAUCCAGUUGAGGACAUCUAGCAAGGGGAGUGACUGCCUCCCUUGGGCCAAGUUCCCCAGCCUCAGCCUGCACAUCUCUCUCUUUG	0.453
UUUAGAAGUGAGCCCCUCUAAUGCCAAGGGAGCGGCUCUGUGCCCAGGAACCCAAGGGGAGGCUAGGAUCCCCUUGGGGAAAUCCAGGUAGCAUCAGGUAUUGACAGGGA	1.33

Block 2
Target: Interferon regulatory factor 7, full length, phosphomimetic (IRF7, Homo sapiens, UniProt Q92985, residues 1-503, S471D/S472D/S475D/S476D/S477D/S483D/S484D/S487D)
UniProt Q92985, sequence (whole entry, unmodified, looked up): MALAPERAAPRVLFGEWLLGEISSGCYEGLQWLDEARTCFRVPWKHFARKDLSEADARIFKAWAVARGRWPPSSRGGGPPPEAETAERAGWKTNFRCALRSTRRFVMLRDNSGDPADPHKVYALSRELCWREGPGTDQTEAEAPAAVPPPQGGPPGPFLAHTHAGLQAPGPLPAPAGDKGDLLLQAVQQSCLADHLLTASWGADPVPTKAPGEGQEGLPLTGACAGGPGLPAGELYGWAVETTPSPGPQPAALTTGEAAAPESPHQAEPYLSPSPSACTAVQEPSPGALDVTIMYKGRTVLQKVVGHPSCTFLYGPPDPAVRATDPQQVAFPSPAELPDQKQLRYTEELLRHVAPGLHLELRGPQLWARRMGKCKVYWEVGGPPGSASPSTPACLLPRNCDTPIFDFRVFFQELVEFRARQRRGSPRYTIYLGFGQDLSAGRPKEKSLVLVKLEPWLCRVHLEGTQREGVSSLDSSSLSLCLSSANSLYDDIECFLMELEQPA
Technique: protein-binding microarray
Form: double-stranded DNA, one strand shown
Medium: in vitro
Concentration: 2200 nM top
Notes: 60-bp whole probe
Added: salmon DNA 0.4 mg/ml
Baseline: random background probes
Reading: higher = stronger binding
Shared flanks, not repeated: GCCTAGCAC … GTCTTGATTCGCTTGACGCTGCTG
Oligonucleotide	fitted relative affinity [z-score]
GAGACTCTAATATTGAGACTGTGCTAG	-0.503
ACCCGAGTCCCTATCTCCTCGTGCTAG	1.22
TCAAGTTTTTATTTTCTACTGTGCTAG	1.99
CTCACCGCTGGAGTTCTGCGGTGCTAG	-0.276
TTAGGTTTCGTGTTTCGGTTAGTGCTA	9.13
TTAGGTTTCCTTTTCCTCTAGTGCTAG	5.03
GACGGTCTCGGACTGGGGGCGTGCTAG	-0.00917
TTTTTTTTCTGATCCATTTTGTGCTAG	2.93
TTAGGACTGGTACTGGGTTAGTGCTAG	-0.682
GACGGTATTGGGACTGGGGACGTGCTA	-0.592
GACGGACTGGGGTTTGGGGACGTGCTA	-0.62
TCAATTTTCAGAATTTAACTGTGCTAG	0.825
ACGTCTTCATGTTTTTTTCTGTGCTAG	1.82
TCAAGTCCCGAGAATGGTACTGTGCTA	-0.219
GGAGAGTTCCAGGAGGTCGAGTGCTAG	-0.648
TCAGGTATTTTTCTAAAACTGTGCTAG	0.081
TCACCTTTATATACCTGACTGTGCTAG	1.55
CATTATTTCAATGCAAGGTGGTGCTAG	0.44
TTTGGTTTCGACTATCGGTTAGTGCTA	5

Block 3
Target: Sal-like protein 4, full length isoform A (SALL4, Homo sapiens, UniProt Q9UJQ4, residues 1-1053)
UniProt Q9UJQ4, sequence (whole entry, looked up): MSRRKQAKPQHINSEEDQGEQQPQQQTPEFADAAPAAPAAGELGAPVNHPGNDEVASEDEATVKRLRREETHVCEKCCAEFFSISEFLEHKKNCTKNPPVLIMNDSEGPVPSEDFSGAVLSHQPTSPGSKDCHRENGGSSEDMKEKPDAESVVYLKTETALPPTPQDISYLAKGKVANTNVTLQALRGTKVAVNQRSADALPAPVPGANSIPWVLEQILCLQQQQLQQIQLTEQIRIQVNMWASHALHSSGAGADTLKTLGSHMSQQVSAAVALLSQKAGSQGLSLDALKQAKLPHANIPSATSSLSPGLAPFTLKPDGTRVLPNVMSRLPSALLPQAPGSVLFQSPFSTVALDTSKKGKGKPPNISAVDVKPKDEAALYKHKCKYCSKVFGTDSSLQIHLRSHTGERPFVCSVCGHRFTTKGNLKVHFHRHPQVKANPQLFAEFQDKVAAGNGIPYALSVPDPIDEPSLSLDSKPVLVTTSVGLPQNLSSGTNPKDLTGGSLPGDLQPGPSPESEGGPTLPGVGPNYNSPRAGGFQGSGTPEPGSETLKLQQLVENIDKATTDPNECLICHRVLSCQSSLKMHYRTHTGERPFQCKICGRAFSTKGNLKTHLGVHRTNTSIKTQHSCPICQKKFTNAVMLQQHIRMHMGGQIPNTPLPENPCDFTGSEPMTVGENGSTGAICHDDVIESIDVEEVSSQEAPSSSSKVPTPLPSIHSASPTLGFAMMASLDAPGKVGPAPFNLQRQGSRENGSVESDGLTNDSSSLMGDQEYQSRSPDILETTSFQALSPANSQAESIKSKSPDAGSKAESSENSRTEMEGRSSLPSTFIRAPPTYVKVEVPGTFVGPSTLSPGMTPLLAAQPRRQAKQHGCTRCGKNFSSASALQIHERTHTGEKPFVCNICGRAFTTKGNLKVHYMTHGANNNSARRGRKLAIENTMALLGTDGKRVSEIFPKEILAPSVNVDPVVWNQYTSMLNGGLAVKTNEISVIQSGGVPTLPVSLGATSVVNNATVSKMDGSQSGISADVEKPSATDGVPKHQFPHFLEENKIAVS
Technique: universal PBM
Form: double-stranded DNA, one strand shown
Medium: in vitro
Concentration: 600 nM
Notes: 8-mer, flanks averaged, mean of replicates
Reading: higher = stronger binding
Oligonucleotide	E-score
GGTCGGTA	-0.088
GATAGAGC	-0.0543
ACATGGAT	0.208
CGTGTAAG	-0.0197
ATCATGAC	0.102
ATAGGGAT	-0.0292
CACACCTA	-0.00722
ACCCGGTA	-0.184
TAGTAGCA	0.0959
ACTTTTTG	0.114
ATCCACGA	0.0575
AGTTACTC	0.13
ACGGACGG	-0.347
TTGTAAAA	0.27
ACGACTAG	0.0514
ACCAGCCA	-0.219
ACGACTCG	-0.226
TAACACAA	0.247
CGCACGCC	-0.217
AGTCTACG	-0.051
CTGCCCCA	-0.224
GTCCCAGA	-0.242
ATGCGAAC	0.0388
CAGCTCGC	-0.151
AACATTAC	0.221

Block 4
Target: Hepatocyte nuclear factor 3-alpha (Foxa1, Mus musculus, UniProt P35582, residues 1-468, full length assumed)
Technique: EMSA with sequencing
Form: double-stranded DNA, one strand shown
Medium: in vitro
Concentration: 10 and 20 nM
Notes: whole designed probe, mean of two concentrations, ends assumed
Baseline: negative control set to 0
Reading: higher = stronger binding
Shared flanks, not repeated: GTGAGCGGTGCCCATTGATGGGGAAC … TTTCACTGGGATCGTGGGGAC
Target sequence (chain): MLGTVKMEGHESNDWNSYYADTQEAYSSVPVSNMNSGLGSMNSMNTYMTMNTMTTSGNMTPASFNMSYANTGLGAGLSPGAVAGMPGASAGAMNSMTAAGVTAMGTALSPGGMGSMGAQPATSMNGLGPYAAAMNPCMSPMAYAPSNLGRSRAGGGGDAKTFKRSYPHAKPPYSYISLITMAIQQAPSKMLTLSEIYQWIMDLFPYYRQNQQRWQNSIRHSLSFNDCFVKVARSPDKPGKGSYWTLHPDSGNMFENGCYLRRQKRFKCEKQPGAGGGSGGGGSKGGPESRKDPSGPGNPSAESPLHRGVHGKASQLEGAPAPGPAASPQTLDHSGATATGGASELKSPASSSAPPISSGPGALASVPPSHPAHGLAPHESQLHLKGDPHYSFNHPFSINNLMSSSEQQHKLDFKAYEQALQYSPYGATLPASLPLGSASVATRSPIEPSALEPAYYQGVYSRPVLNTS
Oligonucleotide	normalised bound fraction [ratio]
TTTCCAGCCCTTAGTTTCTGGCATTTAACCTGACTCTGGTCCCTGAATGGCATGGGAGTGCTTTCAACCACAGGTTTCCACATTCATGCCACTTGTTTGCTTTTTGATCTACCTGACTCATTCAGAGATCTTTATTTGCTTTGTGTTTCCAATGGAGAAAGAGCTTGGGAAGGGAGGATCCTAATTGTCTAAA	0.492
GAATCTACAGACTGGTGATTGTAAAGATTGTTCTAGCTTTTACTATTCTATACAGTGTTCTAAATATGGAGTAGGAAGAGATTTATTGGACAATGTAATCTTATAGTCTGAAACTAAGGCTGTAATACTCATACTGTTTATAGCTGCCAACAATTTCTTCCAACAAAAGGGTTAGTAAAATTTGGTCAATAGT	-0.0257
GGCAGGCCTTGCCTTCTGCACTTACATGTCCCAAGAGGCATCAGCCTGCCCGCTGAAATCCGAAGCCACATAATGTCAACACAGTACTCCTGTGTAAATATCTGGTCCAGGGAAAATGCCTTGAACGCTTGTACAACCAATTTTCTGGCAGGCAGTGAGATGAAAAGGAGAATTAATGCATGCATTAAAATAA	0.4
ATCTTCCCCCTCTTCCTTGCCCCACCAGCTCACCTTCCCGGGTTATTTGCACAAAGGAAAATAAATAAAGCCGGCATTCGTTAACGCAGTTCTGGCGCAAACTGCTGTTTGCTCTGCATCTAACATGGTCCTTACGCGAGGCGTGGCTCCGGGAGAGCAAAGCACCGTGTCAGGCGCATGATCCGGGGTGGCC	0.383
GAAAATATTTATAGTTTCTCTAGGTTGTCAAGAATTGAATTCCTTTTAAATGTAGGCGATGTCATTTTATTTTCTTTGTTTACTTTGAACTTATGTTTACTCTTAATGAGGTTATTTACTTTTCCTACTTGAATTCAGAATGGAAACCATCTGTGACAGGGTTTATATTAACATGACTTTACTATCCACCTGT	0.55

Repeated from above (block 3):
Oligonucleotide	E-score
CGCACGCC	-0.217
AGTCTACG	-0.051
CTGCCCCA	-0.224
GTCCCAGA	-0.242
